Results from different studies.
Numbers after ± are the reported error.

CCCC[n+]1cccc(C2NC(C(=O)OCC)C34c5c6c7c8c9c%10c(c%11c%12c3c3c5c5c%13c6c6c7c7c9c9c%14c%10c%10c%11c%11c%12c%12c3c3c5c5c%13c%13c6c6c7c9c7c9c%14c%10c%10c%11c%11c%12c3c3c5c5c%13c6c7c6c9c%10c%11c3c56)C824)c1 (stereo not shown)
CC50 (DG-75; cell growth or viability; 24 h): > 25 µM

C#CCN1CCc2c3n(c4ccccc24)C(=O)C(C)(C)C3(C(=O)OC)C1 (stereo not shown)
CC50 (HePAD38; cell growth or viability, MTS; 14 days): > 100 µM

COc1ccc(-c2ccc3oc(-c4ccc(OC)cc4)c(C#CC4(O)CCCCC4)c3c2)cc1
CC50 (Huh-7.5.1): > 100 µM

CCOC(=O)C(CC)NC(=O)CN1C(=O)S/C(=C\c2ccc(C)cc2)C1=O (stereo not shown)
CC50 (MDBK; cell growth or viability, CCK-8; 72 h): 84.2 µM

O=[N+]([O-])c1ccc(/C=N/N=C/c2ccc([N+](=O)[O-])s2)cc1
CC50 (MDBK; CCK-8; 72 h): > 329 µM

O=c1ccn([C@@H]2O[C@H](CO)[C@@H](O)[C@H]2F)c(=O)[nH]1
CC50 (CAKI-1; cell growth or viability, SRB; 11 days): > 250 µM

C#CCN1CCc2c([nH]c3ccccc23)C(=C)C1=O
CC50 (HePAD38; cell growth or viability, MTS; 14 days): 43.8 µM

COc1cc(-c2ccc3oc(-c4ccsc4)c(C#CC4(O)CCCCC4)c3c2)cc(OC)c1OC
CC50 (Huh-7.5.1): > 100 µM

O=C(CC1CCN(C(=O)CC23CC4CC(CC(C4)C2)C3)CC1)NC1CCN(S(=O)(=O)c2cc(C(=O)Nc3cc(F)c(F)c(F)c3)ccc2F)CC1
CC50 (HePAD38; cell growth or viability): 28.8 µM

CCOC(=O)C(C)NC(=O)CN1C(=O)N/C(=C\c2ccc(C)cc2)C1=O (stereo not shown)
CC50 (MDBK; cell growth or viability, CCK-8; 72 h): 145 µM

O=C(CN1CCN(C(=O)CC23CC4CC(CC(C4)C2)C3)CC1)NC1CCN(S(=O)(=O)c2cc(C(=O)Nc3cc(F)c(F)c(F)c3)ccc2F)CC1
CC50 (HePAD38; cell growth or viability): 60 µM

O=[N+]([O-])c1ccc(/C=N/N=C/c2ccc(Cl)cc2)s1
CC50 (MDBK; CCK-8; 72 h): > 340 µM

CC1CCC2(C(=O)OCc3ccccc3)CCC3(C)C(=CCC4C5(C)CCC(OC6OC(CO)C(OC7OC(C)C(O)C(O)C7O)C(O)C6OC6OC(C)C(O)C(O)C6O)C(C)(C)C5CCC43C)C2C1C (stereo not shown)
CC50 (MARC145; cell growth or viability, MTT; 48 h): 81.4 µM

Nc1ncnc2c1c(Br)cn2[C@@H]1O[C@H](CO)C[C@H]1O
CC50 (MRC-5 SV2 fibroblasts; resazurin; 72 h, 5% fetal bovine serum): 14.9 µM

O=[N+]([O-])c1ccc(/C=N/N=C/c2ccccc2)o1
CC50 (MDBK; CCK-8; 72 h): 11.6 ± 1.52 µM

CCOC(=O)C(C)NC(=O)CN1C(=O)S/C(=C\c2ccc(F)cc2)C1=O (stereo not shown)
CC50 (MDBK; cell growth or viability, CCK-8; 72 h): > 256 µM

O=C(Nc1cc(F)c(F)c(F)c1)c1ccc(F)c(S(=O)(=O)N2CCC(NC(=O)C3CN(C(=O)CC45CC6CC(CC(C6)C4)C5)C3)CC2)c1
CC50 (HePAD38; cell growth or viability): 60 µM

CCOC(=O)C(NC(=O)CN1C(=O)N/C(=C\c2ccc3c(c2)OCO3)C1=O)C(C)C (stereo not shown)
CC50 (MDBK; cell growth or viability, CCK-8; 72 h): > 266 µM

Nc1ccn([C@@H]2O[C@H](CO)[C@@H](O)[C@H]2F)c(=O)n1
CC50 (CAKI-1; cell growth or viability, SRB; 11 days): 51 µM

O=C(Nc1cc(F)c(F)c(F)c1)c1ccc(F)c(S(=O)(=O)N2CCC(NC(=O)c3ccc(C4CCN(C(=O)CC56CC7CC(CC(C7)C5)C6)CC4)cc3)CC2)c1
CC50 (HePAD38; cell growth or viability): > 60 µM

C[N+](C)(C)c1ccc(C2NC(c3ccc([N+](C)(C)C)cc3)C34c5c6c7c8c9c%10c(c%11c%12c3c3c5c5c%13c6c6c7c7c9c9c%14c%10c%10c%11c%11c%12c%12c3c3c5c5c%13c%13c6c6c7c9c7c9c%14c%10c%10c%11c%11c%12c3c3c5c5c%13c6c7c6c9c%10c%11c3c56)C824)cc1 (stereo not shown)
CC50 (DG-75; cell growth or viability; 24 h): 18.3 µM

CCOC(=O)CNC(=O)CN1C(=O)S/C(=C\c2ccc(OC)c(O)c2)C1=O
CC50 (MDBK; cell growth or viability, CCK-8; 72 h): > 256 µM

C#CCN1CCc2c3n(c4ccccc24)C(=O)C(=C)CC3(C(=O)OC)C1 (stereo not shown)
CC50 (HePAD38; cell growth or viability, MTS; 14 days): 13.3 µM

COc1cc(O)c2c(O)c(C(C)=O)c(C)cc2c1
CC50 (CHO-K1; cell growth or viability, MTT; 72 h): > 100 µM

O=[N+]([O-])c1ccc(/C=N/N=C/c2ccc(Cl)cc2)o1
CC50 (MDBK; CCK-8; 72 h): > 360 µM

CC1(C)NCCC[C@]2(C)[C@H]3CC=C4[C@@H]5C[C@@](C)(CO)CC[C@]5(C)CC[C@@]4(C)[C@]3(C)CC[C@@H]12
CC50 (HFF primary foreskin fibroblasts; cell viability, CellTiter-Glo): 17.6 µM

COc1ccc(/C=N/N=C/c2ccc([N+](=O)[O-])o2)cc1
CC50 (MDBK; CCK-8; 72 h): 41.1 ± 3.15 µM

O=C(Nc1cc(F)c(F)c(F)c1)c1ccc(F)c(S(=O)(=O)N2CCC(NC(=O)c3ccc(N4CCN(C(=O)CC56CC7CC(CC(C7)C5)C6)CC4)cc3)CC2)c1
CC50 (HePAD38; cell growth or viability): > 60 µM

O=[N+]([O-])c1ccc(/C=N/N=C/c2ccccc2)s1
CC50 (MDBK; CCK-8; 72 h): 10.4 ± 1.97 µM

OC[C@H]1O[C@@H](n2cnc3c(O)ncnc32)[C@H](F)[C@@H]1O
CC50 (CAKI-1; cell growth or viability, SRB; 11 days): 55 µM

O=[N+]([O-])c1ccc(/C=N/N=C/c2ccc([N+](=O)[O-])o2)cc1
CC50 (MDBK; CCK-8; 72 h): 24.6 ± 15.8 µM

Nc1ncnc2c1ncn2[C@@H]1O[C@H](CO)[C@@H](O)[C@H]1F
CC50 (CAKI-1; sulforhodamine B; 11 days, galactose medium): 43 µM

O=C(Nc1cc(F)c(F)c(F)c1)c1ccc(F)c(S(=O)(=O)N2CCC(NC(=O)C3CCN(C(=O)CC45CC6CC(CC(C6)C4)C5)CC3)CC2)c1
CC50 (HePAD38; cell growth or viability): > 60 µM

Cc1ccc(/C=N/N=C/c2ccc([N+](=O)[O-])o2)cc1
CC50 (MDBK; CCK-8; 72 h): > 389 µM

Repeated from above:
C#CCN1CCc2c([nH]c3ccccc23)C(=C)C1=O
CC50 (HePAD38; cell growth or viability, MTS; 14 days): 43.8 µM

COc1ccc(-c2ccc3oc(-c4ccc(OC)cc4)c(C#CC4(O)CCCCC4)c3c2)cc1
CC50 (Huh-7.5.1): > 100 µM

O=[N+]([O-])c1ccc(/C=N/N=C/c2ccccc2)s1
CC50 (MDBK; CCK-8; 72 h): 10.4 ± 1.97 µM

O=[N+]([O-])c1ccc(/C=N/N=C/c2ccccc2)o1
CC50 (MDBK; CCK-8; 72 h): 11.6 ± 1.52 µM
